Assay results collected from several papers.
Parts stem from different laboratories: compare values within a part only.
UniProt P48730, sequence (whole entry, looked up): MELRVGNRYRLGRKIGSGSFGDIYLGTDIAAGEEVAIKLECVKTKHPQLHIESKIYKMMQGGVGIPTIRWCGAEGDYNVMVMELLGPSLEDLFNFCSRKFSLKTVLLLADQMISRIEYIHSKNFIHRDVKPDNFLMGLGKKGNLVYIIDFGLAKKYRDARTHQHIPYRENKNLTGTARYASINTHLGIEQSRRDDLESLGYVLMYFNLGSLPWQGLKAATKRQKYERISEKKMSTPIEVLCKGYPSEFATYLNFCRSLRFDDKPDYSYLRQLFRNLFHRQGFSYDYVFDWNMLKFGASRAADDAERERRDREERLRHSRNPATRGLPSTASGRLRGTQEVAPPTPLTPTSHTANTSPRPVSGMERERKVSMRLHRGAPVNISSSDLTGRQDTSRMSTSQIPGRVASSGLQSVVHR
UniProt Q9Y5N1, sequence (whole entry, looked up): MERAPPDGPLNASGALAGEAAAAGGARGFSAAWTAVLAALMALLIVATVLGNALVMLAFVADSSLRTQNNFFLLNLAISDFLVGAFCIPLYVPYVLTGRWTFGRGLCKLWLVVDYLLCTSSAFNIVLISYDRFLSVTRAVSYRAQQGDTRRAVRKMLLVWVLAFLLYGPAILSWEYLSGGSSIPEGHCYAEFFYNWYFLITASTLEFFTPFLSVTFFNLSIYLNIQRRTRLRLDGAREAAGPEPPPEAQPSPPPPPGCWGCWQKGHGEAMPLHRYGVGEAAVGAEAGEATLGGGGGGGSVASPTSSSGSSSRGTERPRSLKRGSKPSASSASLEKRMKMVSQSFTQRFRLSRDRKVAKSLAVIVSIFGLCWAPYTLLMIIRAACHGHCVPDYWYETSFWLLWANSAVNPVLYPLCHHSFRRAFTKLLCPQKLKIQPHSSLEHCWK
UniProt P17948, sequence (whole entry, looked up): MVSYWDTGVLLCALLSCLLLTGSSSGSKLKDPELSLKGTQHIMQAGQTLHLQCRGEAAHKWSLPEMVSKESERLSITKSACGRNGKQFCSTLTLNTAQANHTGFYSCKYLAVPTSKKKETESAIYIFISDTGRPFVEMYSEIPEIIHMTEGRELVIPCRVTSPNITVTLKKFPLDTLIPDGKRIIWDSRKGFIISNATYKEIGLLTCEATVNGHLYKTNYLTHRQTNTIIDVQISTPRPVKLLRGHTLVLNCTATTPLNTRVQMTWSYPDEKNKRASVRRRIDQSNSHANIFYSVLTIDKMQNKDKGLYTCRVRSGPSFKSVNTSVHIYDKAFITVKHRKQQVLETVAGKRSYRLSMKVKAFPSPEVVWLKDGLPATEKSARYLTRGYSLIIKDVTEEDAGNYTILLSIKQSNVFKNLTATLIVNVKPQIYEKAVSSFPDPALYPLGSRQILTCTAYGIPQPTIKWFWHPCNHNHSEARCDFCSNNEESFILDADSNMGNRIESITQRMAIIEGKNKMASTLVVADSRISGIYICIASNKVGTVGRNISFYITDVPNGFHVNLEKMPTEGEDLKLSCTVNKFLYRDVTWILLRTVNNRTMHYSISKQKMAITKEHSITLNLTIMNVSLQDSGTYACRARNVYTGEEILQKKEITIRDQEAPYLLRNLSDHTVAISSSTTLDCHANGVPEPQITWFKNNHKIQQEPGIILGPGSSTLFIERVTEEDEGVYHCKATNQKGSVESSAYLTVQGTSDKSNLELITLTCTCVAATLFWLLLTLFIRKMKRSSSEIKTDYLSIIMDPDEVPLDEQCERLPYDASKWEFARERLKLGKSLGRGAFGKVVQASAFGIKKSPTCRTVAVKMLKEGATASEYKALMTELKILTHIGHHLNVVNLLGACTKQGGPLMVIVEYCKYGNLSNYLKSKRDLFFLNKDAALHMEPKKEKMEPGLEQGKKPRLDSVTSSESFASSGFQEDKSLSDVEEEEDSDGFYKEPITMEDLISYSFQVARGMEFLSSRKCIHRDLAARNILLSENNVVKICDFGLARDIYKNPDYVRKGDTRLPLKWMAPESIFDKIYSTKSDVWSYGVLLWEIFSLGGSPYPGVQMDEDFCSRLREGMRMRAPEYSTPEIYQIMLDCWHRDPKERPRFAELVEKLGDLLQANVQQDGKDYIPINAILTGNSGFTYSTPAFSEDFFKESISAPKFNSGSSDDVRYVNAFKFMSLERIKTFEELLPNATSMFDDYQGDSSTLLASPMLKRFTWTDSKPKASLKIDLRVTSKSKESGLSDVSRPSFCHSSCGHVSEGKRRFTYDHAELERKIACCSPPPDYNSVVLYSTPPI
UniProt P35462, sequence (whole entry, looked up): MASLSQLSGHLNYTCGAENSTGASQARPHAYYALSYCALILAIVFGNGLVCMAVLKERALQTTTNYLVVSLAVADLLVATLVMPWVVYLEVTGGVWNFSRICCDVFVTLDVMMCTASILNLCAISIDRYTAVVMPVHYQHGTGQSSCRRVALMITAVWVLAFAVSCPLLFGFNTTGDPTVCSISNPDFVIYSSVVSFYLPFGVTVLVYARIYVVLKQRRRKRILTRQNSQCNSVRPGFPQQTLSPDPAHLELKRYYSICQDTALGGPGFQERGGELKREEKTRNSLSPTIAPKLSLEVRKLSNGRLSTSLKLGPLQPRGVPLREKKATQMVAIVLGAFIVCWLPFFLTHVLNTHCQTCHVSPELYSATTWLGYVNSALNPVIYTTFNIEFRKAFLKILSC
UniProt P41595, sequence (whole entry, looked up): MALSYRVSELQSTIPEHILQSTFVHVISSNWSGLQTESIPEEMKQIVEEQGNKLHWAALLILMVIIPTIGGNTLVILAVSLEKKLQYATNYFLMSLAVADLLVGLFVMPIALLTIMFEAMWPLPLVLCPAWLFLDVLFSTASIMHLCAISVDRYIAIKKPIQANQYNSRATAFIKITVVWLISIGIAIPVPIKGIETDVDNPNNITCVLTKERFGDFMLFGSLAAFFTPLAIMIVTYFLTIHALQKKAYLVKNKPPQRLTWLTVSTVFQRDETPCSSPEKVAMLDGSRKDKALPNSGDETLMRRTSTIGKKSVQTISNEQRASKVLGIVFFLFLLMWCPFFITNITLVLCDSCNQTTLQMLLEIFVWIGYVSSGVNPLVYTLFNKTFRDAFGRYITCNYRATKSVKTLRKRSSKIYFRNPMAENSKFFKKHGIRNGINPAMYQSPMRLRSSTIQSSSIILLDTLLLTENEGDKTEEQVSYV
UniProt Q9HBY8, sequence (whole entry, looked up): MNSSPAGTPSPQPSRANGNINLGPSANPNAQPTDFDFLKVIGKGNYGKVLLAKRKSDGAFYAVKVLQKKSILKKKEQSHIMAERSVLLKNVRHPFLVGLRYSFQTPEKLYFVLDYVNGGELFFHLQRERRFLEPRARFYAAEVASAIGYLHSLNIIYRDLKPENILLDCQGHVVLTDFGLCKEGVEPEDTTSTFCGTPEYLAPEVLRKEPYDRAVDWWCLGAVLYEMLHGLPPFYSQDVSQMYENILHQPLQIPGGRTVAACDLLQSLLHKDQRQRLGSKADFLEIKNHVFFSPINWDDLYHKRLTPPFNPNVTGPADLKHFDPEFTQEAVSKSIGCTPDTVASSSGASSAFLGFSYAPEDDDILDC
UniProt Q9H0K1, sequence (whole entry, looked up): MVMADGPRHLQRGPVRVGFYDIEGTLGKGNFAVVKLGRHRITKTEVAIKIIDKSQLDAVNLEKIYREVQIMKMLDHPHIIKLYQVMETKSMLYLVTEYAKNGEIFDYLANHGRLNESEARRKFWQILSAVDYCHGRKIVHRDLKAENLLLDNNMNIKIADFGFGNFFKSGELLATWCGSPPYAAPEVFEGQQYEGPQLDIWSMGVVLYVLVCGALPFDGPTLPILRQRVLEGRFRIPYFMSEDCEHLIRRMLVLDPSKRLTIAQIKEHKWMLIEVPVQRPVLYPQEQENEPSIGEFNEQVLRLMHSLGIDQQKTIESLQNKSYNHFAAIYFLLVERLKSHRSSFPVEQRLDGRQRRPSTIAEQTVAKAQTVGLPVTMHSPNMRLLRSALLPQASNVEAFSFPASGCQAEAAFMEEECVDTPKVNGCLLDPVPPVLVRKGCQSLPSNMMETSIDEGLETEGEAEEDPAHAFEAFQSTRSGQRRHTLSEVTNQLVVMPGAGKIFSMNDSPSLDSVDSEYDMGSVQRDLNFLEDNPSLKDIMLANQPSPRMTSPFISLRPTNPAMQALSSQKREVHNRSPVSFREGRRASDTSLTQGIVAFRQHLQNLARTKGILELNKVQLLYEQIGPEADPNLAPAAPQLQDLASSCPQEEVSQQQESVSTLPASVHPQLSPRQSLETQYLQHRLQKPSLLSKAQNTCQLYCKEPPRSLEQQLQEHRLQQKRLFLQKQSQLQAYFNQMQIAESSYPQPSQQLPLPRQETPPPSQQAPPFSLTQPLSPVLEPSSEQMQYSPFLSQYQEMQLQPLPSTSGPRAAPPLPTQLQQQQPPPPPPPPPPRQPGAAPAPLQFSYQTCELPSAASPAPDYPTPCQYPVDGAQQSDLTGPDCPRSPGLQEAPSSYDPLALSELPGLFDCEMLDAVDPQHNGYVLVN
UniProt P37023, sequence (whole entry, looked up): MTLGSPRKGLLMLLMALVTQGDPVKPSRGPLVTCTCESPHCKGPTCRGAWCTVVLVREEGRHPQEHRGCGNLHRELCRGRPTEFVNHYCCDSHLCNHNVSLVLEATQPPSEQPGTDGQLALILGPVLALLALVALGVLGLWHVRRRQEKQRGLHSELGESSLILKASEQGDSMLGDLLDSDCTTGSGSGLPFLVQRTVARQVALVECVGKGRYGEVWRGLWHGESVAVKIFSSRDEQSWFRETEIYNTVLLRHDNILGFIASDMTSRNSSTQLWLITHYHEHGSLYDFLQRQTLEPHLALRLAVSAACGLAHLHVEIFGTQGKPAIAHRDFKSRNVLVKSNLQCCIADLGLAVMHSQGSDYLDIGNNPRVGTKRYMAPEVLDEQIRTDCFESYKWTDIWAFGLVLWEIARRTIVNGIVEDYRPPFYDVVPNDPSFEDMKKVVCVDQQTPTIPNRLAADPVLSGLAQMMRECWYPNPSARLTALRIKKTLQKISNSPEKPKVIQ

Study 1
Cell line: HaCaT
Tested at: 100 µM
Time: 18 h
| Compound | viability [%] |
| --- | --- |
| O=C(O)CCn1c2c(c3ccccc31)C[C@H](NS(=O)(=O)c1ccc(F)cc1)CC2 | 84.6 |
| CC[C@H](C)C(=O)O[C@H]1C[C@@H](C)C=C2C=C[C@H](C)[C@H](CC[C@@H]3C[C@@H](O)CC(=O)O3)[C@H]21 | 74.9 |
| COc1ccc(/C=C/C(=O)Nc2ccccc2C(=O)O)cc1OC | 59.8 |
| Cc1ccc(-c2cc(C(F)(F)F)nn2-c2ccc(S(N)(=O)=O)cc2)cc1 | 15.4 |
| c1ccc(CN(CC2=NCCN2)c2ccccc2)cc1 | 95.5 |
| C[n+]1cc2c3c(ccc2c2ccc4cc5c(cc4c21)OCO5)OCO3 | 108 |
| COc1cc([C@@H]2c3cc4c(cc3[C@@H](O[C@@H]3O[C@@H]5CO[C@@H](C)O[C@H]5[C@H](O)[C@H]3O)[C@H]3COC(=O)[C@H]23)OCO4)cc(OC)c1O | 112 |

Study 2
SMILES: COc1ccc(Cl)cc1NC(=O)Nc1cc(C)nc2ccccc12
Read-out: enzyme activity
Mode: inhibitor
Tested at: 0.5 µM
Relative to: control
| target | remaining activity |
| --- | --- |
| Protein kinase C theta type (PRKCQ, Homo sapiens, UniProt Q04759) | 96.7% |
| Tyrosine-protein kinase receptor TYRO3 (TYRO3, Homo sapiens, UniProt Q06418) | 98.9% |
| Receptor tyrosine-protein kinase erbB-2 (ERBB2, Homo sapiens, UniProt P04626) | 99.7% |
| Tyrosine-protein kinase JAK1 (JAK1, Homo sapiens, UniProt P23458) | 99.3% |
| Protein kinase C zeta type (PRKCZ, Homo sapiens, UniProt Q05513) | 99.4% |
| Tyrosine-protein kinase Fes/Fps (FES, Homo sapiens, UniProt P07332) | 101% |
| Casein kinase I isoform delta (CSNK1D, Homo sapiens, UniProt P48730) | 98.7% |
| Activin receptor type-1-like (ACVRL1, Homo sapiens, UniProt P37023) | 98.6% |
| Vascular endothelial growth factor receptor 1 (FLT1, Homo sapiens, UniProt P17948) | 86.2% |
| Serine/threonine-protein kinase Sgk2 (SGK2, Homo sapiens, UniProt Q9HBY8) | 96.3% |
| Serine/threonine-protein kinase SIK2 (SIK2, Homo sapiens, UniProt Q9H0K1) | 87.8% |
| Cyclin-dependent kinase 2, with cyclin E (CDK2, Homo sapiens, UniProt P24941) | 94.6% |
| Ephrin type-A receptor 2 (EPHA2, Homo sapiens, UniProt P29317) | 100% |
| Muscle, skeletal receptor tyrosine-protein kinase (MUSK, Homo sapiens, UniProt O15146) | 93.3% |
| Tyrosine-protein kinase JAK2 (JAK2, Homo sapiens, UniProt O60674) | 99.6% |
| Serine/threonine-protein kinase PAK 4 (PAK4, Homo sapiens, UniProt O96013) | 77.9% |
| Serine/threonine-protein kinase PAK 6 (PAK6, Homo sapiens, UniProt Q9NQU5) | 96.5% |
| Dual specificity protein kinase CLK2 (CLK2, Homo sapiens, UniProt P49760) | 97.7% |

Study 3
Compound: Cc1cc(NC(=O)c2cccc(S(F)(F)(F)(F)F)c2)cc(-n2ccn3nc(-c4cccnc4)cc23)c1
Read-out: ligand displacement
Method: radioligand
Tested at: 10 µM
| target | inhibition [%] |
| --- | --- |
| 5-hydroxytryptamine receptor 2B (HTR2B, Homo sapiens, UniProt P41595) | 47.1 |
| Alpha-1A adrenergic receptor (ADRA1A, Homo sapiens, UniProt P35348) | 1.88 |
| Histamine H1 receptor (HRH1, Homo sapiens, UniProt P35367) | 4.94 |
| Muscarinic acetylcholine receptor M4 (CHRM4, Homo sapiens, UniProt P08173) | -13.8 |
| Alpha-2C adrenergic receptor (ADRA2C, Homo sapiens, UniProt P18825) | 3.16 |
| D(3) dopamine receptor (DRD3, Homo sapiens, UniProt P35462) | -7.82 |
| Histamine H3 receptor (HRH3, Homo sapiens, UniProt Q9Y5N1) | 40.5 |

Study 4
Species: human
Medium: microsomes or S9
Tested at: 2 µM
Time: 0.5 h
| SMILES | remaining compound [%] |
| --- | --- |
| CC(C)CN(CC(C)C)S(=O)(=O)c1ccc(NC(=O)C(C)C)cc1 | < 1 |
| c1ccc(C2CCC3(CC2)Oc2ccccc2C2CC(c4ccncc4)=NN23)cc1 (stereo not shown) | 56.1 |
| COc1cc(=O)[nH]cc1C(=O)NC1CCCN(c2ccccc2)C1=O (stereo not shown) | 85.7 |
| Brc1ccc2nc(-c3cccs3)cn2c1 | 41.7 |
| Cc1nc(-c2c[nH]c(C(=O)N3CCOc4cc(F)ccc43)c2)cs1 | 104 |
| CC(C)COc1cc(=O)n2c(c1C(=O)NCc1ccccc1F)CCCCC2 | 72.7 |
| Cc1nn2c(N(C)C)cc(Cl)nc2c1Br | 33.1 |

Mixed results
| Structure (SMILES) | medium | quantity | result |
| --- | --- | --- | --- |
| CCOC(=O)[C@@H]1CSCC(=O)N[C@@H](CC)C(=O)N(C)[C@@H](C)C(=O)N[C@@H](CC(C)C)C(=O)N2CCC[C@H]2C(=O)N(CC(C)C)CC(=O)N[C@@H](CC(C)C)C(=O)N(C)[C@H](C)C(=O)N[C@@H](CC(C)C)C(=O)N1C | hydrocarbon/water | logD | 0.585 |

For quick reference, copied from above (study 1):
| Compound | viability [%] |
| --- | --- |
| CC[C@H](C)C(=O)O[C@H]1C[C@@H](C)C=C2C=C[C@H](C)[C@H](CC[C@@H]3C[C@@H](O)CC(=O)O3)[C@H]21 | 74.9 |
| O=C(O)CCn1c2c(c3ccccc31)C[C@H](NS(=O)(=O)c1ccc(F)cc1)CC2 | 84.6 |
| Cc1ccc(-c2cc(C(F)(F)F)nn2-c2ccc(S(N)(=O)=O)cc2)cc1 | 15.4 |
